{"data": "Assay results pooled from the literature", "note": "Parts stem from different laboratories: compare values within a part only."}
{"data": "Series 1", "target": "Sal-like protein 4, full length isoform B (SALL4, Homo sapiens, UniProt Q9UJQ4-2, residues 1-616)", "technique": "universal PBM", "form": "double-stranded DNA, one strand shown", "sample": "in vitro", "tested at": "not given", "notes": "8-mer, flanks averaged, mean of replicates", "direction": "higher = stronger binding"}
{"Oligonucleotide": "CATGCCCA", "E-score": -0.339}
{"Oligonucleotide": "GTCAGCGA", "E-score": -0.214}
{"Oligonucleotide": "GCGAACTA", "E-score": -0.0141}
{"Oligonucleotide": "ACGACAAA", "E-score": 0.145}
{"Oligonucleotide": "GCTTTTGA", "E-score": -0.0968}
{"data": "Series 2", "target": "Prothrombin, mature alpha-thrombin (F2, Homo sapiens, UniProt P00734)", "technique": "aptamer microarray, sandwich", "form": "DNA with 2'F-ANA", "sample": "in vitro", "tested at": "200 nM", "notes": "whole 15-mer aptamer, many near background", "added": "Cy3 exosite-II aptamer, 400 nM", "direction": "higher = stronger binding", "oligonucleotide": "GGTTGGTGTGGTTGG"}
{"Modification": "2'F-ANA at 1 4 7 10 11 12 13", "mean fluorescence intensity [a.u.]": 51.3}
{"Modification": "2'F-ANA at 2 3 6 7 8 9 10 12", "mean fluorescence intensity [a.u.]": 351}
{"Modification": "2'F-ANA at 2 3 5 6 8 10 11 13 15", "mean fluorescence intensity [a.u.]": 56.9}
{"Modification": "2'F-ANA at 4 5 12 13 14", "mean fluorescence intensity [a.u.]": 50.5}
{"Modification": "2'F-ANA at 1 3 10 13 14 15", "mean fluorescence intensity [a.u.]": 54.4}
{"data": "Series 3", "target": "Histone acetyltransferase KAT6A, both winged helices, GST fusion (KAT6A, Homo sapiens, UniProt Q92794, residues 1-181)", "technique": "protein binding microarray", "form": "double-stranded DNA, one strand shown", "sample": "in vitro", "tested at": "not given", "notes": "8-mer, flanks averaged, mean of 2 arrays, mostly near background", "baseline": "not given", "direction": "higher = stronger binding", "Target sequence (chain)": "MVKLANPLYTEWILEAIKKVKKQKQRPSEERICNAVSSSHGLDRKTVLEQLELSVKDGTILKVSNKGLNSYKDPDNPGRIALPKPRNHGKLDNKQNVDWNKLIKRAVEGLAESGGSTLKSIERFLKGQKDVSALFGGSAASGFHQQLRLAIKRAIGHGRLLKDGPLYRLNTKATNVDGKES"}
{"Oligonucleotide": "ACGCACTC", "E-score": 0.112}
{"Oligonucleotide": "ATTGGGAC", "E-score": -0.27}
{"Oligonucleotide": "CGACCTCA", "E-score": -0.033}
{"Oligonucleotide": "AGCCTTAA", "E-score": -0.00869}
{"Oligonucleotide": "GATTAAGC", "E-score": -0.0676}
{"data": "Mixed results"}
{"Molecule": "PhoQ, residues 284 288 289 292 302 303 AQGLTV", "target": "PhoP, residues 12 14 15 18 19 LHHVQ (Escherichia coli, UniProt P23836)", "assay": "Sort-seq, refers to: YFP reporter", "test system": "E. coli", "conditions": "PhoQ-PhoP variant library, added: 10 µM Mg2+", "how to read": "baseline: high Mg2+ state, higher = stronger signaling", "measurement": "fold induction", "value": 21.4}
{"note": "Excerpt of the above (mixed results):"}
{"Molecule": "PhoQ, residues 284 288 289 292 302 303 AQGLTV", "target": "PhoP, residues 12 14 15 18 19 LHHVQ (Escherichia coli, UniProt P23836)", "assay": "Sort-seq, refers to: YFP reporter", "test system": "E. coli", "conditions": "PhoQ-PhoP variant library, added: 10 µM Mg2+", "how to read": "baseline: high Mg2+ state, higher = stronger signaling", "measurement": "fold induction", "value": 21.4}
